Assay results from different studies.
Each numbered part is a random draw from the data of one study; scales do not carry over between parts. Values joined by “and” are separate records of one study, mostly repeats; a detail may differ.
Sequence of UniProt P49761 (whole entry, looked up): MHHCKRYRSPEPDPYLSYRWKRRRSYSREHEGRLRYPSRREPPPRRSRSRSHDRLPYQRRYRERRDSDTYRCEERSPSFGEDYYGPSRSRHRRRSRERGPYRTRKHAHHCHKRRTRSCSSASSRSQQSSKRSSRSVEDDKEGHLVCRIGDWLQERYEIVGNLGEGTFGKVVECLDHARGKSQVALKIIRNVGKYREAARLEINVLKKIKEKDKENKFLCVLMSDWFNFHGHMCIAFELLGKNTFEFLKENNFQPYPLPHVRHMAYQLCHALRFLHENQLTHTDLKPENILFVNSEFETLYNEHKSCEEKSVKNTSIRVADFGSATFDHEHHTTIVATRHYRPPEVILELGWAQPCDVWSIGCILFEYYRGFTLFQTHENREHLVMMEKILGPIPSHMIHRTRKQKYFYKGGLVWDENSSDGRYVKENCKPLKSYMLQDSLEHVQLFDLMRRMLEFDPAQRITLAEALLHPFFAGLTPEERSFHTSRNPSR
Sequence of UniProt O14936 (whole entry, looked up): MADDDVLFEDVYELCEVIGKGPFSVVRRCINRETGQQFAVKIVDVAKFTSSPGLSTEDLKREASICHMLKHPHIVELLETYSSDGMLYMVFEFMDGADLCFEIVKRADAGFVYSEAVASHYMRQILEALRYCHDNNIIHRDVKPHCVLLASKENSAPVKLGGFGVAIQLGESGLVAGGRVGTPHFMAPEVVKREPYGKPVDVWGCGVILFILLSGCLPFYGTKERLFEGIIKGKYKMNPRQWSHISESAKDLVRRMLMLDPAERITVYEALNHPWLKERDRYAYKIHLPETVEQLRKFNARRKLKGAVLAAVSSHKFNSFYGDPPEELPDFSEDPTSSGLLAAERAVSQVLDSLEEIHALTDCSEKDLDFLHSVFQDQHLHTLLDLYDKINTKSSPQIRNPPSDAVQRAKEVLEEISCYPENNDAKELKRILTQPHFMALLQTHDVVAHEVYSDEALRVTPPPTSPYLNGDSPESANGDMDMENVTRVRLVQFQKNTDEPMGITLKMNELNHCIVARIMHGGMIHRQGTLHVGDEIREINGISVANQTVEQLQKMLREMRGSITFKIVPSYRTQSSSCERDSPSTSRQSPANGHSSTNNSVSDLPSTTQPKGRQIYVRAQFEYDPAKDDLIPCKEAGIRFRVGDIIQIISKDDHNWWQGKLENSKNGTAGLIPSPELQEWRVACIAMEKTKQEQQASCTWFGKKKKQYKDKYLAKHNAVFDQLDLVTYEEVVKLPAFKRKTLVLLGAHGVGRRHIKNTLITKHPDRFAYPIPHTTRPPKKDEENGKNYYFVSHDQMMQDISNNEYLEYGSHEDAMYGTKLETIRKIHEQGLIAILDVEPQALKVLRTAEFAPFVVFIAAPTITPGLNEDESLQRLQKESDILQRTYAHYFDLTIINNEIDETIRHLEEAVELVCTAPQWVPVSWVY
Sequence of UniProt Q00536 (whole entry, looked up): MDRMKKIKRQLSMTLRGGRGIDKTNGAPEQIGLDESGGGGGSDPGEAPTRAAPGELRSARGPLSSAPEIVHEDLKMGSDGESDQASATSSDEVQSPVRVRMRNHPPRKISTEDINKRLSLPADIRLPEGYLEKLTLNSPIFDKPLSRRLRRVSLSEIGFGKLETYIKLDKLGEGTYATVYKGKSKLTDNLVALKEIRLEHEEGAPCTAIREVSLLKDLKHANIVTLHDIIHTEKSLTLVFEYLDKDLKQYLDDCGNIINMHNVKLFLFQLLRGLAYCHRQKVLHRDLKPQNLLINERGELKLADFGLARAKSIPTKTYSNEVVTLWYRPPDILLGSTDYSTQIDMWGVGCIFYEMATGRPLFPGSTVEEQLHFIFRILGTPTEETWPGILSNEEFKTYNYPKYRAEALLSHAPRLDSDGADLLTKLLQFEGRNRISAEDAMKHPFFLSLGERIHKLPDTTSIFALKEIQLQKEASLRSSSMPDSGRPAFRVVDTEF
Sequence of UniProt Q02779 (whole entry, looked up): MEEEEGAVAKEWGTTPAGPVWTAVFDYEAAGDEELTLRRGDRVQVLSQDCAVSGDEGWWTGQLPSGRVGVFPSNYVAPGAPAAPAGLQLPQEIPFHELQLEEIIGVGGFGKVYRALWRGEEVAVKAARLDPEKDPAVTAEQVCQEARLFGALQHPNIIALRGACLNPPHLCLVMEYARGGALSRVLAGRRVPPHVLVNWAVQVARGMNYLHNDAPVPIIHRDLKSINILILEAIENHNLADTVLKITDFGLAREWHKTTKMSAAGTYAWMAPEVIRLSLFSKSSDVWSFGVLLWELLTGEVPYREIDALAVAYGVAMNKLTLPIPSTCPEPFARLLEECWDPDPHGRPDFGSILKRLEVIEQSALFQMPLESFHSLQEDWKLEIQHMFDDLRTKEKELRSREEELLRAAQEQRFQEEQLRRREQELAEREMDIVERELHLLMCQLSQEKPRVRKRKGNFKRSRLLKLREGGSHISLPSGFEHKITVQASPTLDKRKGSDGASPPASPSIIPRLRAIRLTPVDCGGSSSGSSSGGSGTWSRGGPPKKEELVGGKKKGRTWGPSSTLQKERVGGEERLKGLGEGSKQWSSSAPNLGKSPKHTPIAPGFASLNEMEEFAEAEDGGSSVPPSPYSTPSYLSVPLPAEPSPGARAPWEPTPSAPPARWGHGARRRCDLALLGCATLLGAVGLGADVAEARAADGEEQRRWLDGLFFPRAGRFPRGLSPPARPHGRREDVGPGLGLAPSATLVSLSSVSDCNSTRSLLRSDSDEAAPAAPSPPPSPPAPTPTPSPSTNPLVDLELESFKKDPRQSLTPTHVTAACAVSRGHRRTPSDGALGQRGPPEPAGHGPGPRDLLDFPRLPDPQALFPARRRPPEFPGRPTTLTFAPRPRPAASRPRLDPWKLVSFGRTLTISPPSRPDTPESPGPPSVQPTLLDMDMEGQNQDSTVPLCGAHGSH
Sequence of UniProt Q6PHR2 (whole entry, looked up): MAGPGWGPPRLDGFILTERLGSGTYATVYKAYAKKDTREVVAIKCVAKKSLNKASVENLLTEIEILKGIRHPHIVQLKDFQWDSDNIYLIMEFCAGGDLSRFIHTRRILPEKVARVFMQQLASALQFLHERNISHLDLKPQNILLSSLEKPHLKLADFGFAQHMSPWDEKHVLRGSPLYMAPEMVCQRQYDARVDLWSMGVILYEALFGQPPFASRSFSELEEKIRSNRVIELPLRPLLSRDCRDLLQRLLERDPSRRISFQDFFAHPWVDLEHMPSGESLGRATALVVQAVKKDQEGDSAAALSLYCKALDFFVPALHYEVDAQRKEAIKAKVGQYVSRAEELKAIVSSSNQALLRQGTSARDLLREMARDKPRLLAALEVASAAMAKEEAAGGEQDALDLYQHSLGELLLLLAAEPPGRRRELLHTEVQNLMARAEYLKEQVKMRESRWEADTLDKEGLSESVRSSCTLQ
Sequence of UniProt P35590 (whole entry, looked up): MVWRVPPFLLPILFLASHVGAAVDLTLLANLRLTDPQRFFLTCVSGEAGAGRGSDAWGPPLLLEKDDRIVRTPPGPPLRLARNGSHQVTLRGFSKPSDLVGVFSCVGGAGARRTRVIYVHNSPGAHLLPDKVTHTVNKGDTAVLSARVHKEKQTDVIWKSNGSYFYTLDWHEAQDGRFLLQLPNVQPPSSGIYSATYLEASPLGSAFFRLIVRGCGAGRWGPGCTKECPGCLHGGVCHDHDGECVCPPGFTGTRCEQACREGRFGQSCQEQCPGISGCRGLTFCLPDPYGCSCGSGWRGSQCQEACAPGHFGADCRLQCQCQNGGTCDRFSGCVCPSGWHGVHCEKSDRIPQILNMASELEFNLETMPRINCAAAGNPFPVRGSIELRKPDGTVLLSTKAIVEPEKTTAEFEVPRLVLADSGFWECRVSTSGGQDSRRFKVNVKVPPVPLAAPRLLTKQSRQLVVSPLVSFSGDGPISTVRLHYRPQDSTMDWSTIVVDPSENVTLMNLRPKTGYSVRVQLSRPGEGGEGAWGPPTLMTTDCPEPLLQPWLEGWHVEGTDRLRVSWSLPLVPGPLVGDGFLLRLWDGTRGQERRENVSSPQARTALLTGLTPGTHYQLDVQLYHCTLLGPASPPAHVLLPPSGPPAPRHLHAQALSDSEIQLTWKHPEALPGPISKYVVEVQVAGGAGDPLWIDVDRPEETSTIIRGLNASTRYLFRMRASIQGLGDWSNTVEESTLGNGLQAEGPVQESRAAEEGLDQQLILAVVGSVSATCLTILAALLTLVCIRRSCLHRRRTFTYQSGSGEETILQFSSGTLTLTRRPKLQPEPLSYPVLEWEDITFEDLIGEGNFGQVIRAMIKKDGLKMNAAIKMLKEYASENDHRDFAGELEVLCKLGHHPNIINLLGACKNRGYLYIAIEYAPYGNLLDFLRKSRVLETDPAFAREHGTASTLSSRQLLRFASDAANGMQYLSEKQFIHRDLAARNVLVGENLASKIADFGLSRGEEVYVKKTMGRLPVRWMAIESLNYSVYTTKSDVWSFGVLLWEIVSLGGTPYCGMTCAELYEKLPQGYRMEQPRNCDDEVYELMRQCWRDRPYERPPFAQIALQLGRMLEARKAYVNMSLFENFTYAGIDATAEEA

Series 1
Structure (SMILES): COc1ccc(-c2c(Nc3ccccn3)[nH]c3c(C4=CCCCC4)c(-c4ccccc4)nn3c2=O)cc1
Species: human patients
Sample: plasma
| test | conditions | geometric mean concentration |
| --- | --- | --- |
| refers to: S-adenosylmethionine | 200 mg once daily, 2 h | 13.8 ng/mL |
| refers to: S-adenosylmethionine | 200 mg once daily, 6 h | 14.5 ng/mL |
| refers to: methionine | 400 mg once daily, 2 h | 75400 ng/mL |
| refers to: methionine | 150 mg once daily, 2 h | 126000 ng/mL |

Series 2
Cell line: A-375
Concentration: 100 µM
Time: 36 h
| SMILES | viability [%] |
| --- | --- |
| C[N+]1(C)[C@@H]2C[C@@H](OC(=O)C(O)(c3cccs3)c3cccs3)C[C@H]1[C@@H]1O[C@@H]12 | 112 |
| COCCCOc1cc(C[C@@H](C[C@H](N)[C@@H](O)C[C@H](C(=O)NCC(C)(C)C(N)=O)C(C)C)C(C)C)ccc1OC | 92.9 |
| CCCCNc1ccc(C(=O)OCCN(C)C)cc1 | 94.3 |
| Nc1nc(NC2CC2)c2ncn([C@H]3C=C[C@@H](CO)C3)c2n1 | 98.1 |

Series 3
SMILES: CC(C)(C(=O)O)[C@H](NC(=O)Cc1cccc(I)c1)c1ccc2oc(=O)[nH]c2c1
Method: Incucyte 3D growth
Concentration: 30 µM
Reading: higher = more growth
| cell line | conditions | spheroid area |
| --- | --- | --- |
| NCI-H1437 | 96 h | 2.44e+07 a.u. and 2.49e+07 a.u. and 2.57e+07 a.u. and 3.07e+07 a.u. and 2.99e+07 a.u. and 2.88e+07 a.u. |
| A375 | 402.52 h | 1.65e+08 a.u. and 1.72e+08 a.u. and 1.61e+08 a.u. and 1.77e+08 a.u. and 1.86e+08 a.u. and 1.55e+08 a.u. |
| KP-4 | 96 h | 1.88e+07 a.u. and 1.79e+07 a.u. and 1.71e+07 a.u. and 1.83e+07 a.u. and 1.49e+07 a.u. and 1.42e+07 a.u. |
| IPC-298 | 228 h | 3.48e+07 a.u. and 2.77e+07 a.u. and 2.62e+07 a.u. and 2.58e+07 a.u. and 3.96e+07 a.u. and 3.07e+07 a.u. |

Series 4
Target: Calcium/calmodulin-dependent protein kinase type II subunit alpha (CAMK2A, Homo sapiens, UniProt Q9UQM7)
Sequence of UniProt Q9UQM7 (whole entry, looked up): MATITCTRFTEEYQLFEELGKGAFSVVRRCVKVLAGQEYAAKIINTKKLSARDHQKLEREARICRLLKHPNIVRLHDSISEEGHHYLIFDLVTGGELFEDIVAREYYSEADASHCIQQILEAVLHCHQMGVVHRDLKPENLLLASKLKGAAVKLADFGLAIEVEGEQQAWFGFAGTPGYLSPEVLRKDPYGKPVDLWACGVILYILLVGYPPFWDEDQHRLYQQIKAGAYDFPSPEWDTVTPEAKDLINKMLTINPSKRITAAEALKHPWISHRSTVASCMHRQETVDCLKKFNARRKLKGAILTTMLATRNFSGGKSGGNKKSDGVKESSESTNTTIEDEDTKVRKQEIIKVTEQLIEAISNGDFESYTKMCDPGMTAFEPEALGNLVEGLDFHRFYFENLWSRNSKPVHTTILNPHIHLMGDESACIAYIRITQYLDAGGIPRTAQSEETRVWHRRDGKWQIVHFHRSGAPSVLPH
Effect on: enzyme activity
Mode: inhibitor
Concentration: 10 µM
| SMILES | inhibition [%] |
| --- | --- |
| OCc1c[nH]c2ccccc12 | -20 |
| C[C@@H]1C(=O)O[C@H]2C[C@]34[C@@H]5OC(=O)[C@]3(O[C@@H]3OC(=O)[C@H](O)[C@@]34[C@H](C(C)(C)C)[C@H]5O)[C@]21O | -15 |
| O=c1ccc2ccc(O)cc2o1 | -33 |

Series 5
Compound: CC1=C(C#N)C(c2ccc3c(c2)c(NC(=O)c2ccccc2C)nn3C)C(C#N)=C(C)N1
Method: competition with immobilised ligand
Concentration: 1 µM
| target | test | remaining binding [%] |
| --- | --- | --- |
| OXSR1 (Homo sapiens, UniProt O95747) | cell-free assay | 83 |
| CASK (Homo sapiens, UniProt O14936) | cell-free assay | 67 |
| RPS6KB1 (Homo sapiens, UniProt P23443) | cell-free assay | 74 |
| EPHA3 (Homo sapiens, UniProt P29320) | cell-free assay | 99 |
| CDK16 (Homo sapiens, UniProt Q00536) | cell-free assay | 93 |
| TIE1 (Homo sapiens, UniProt P35590) | cell-free assay | 94 |
| MAP3K10 (Homo sapiens, UniProt Q02779) | cell-free assay | 69 |
| CLK3 (Homo sapiens, UniProt P49761) | cell-free assay | 94 |
| Tyrosine-protein kinase ABL1, phosphorylated (ABL1, Homo sapiens, UniProt P00519, E255K) | binding | 63 |
| PDPK1 (Homo sapiens, UniProt O15530) | cell-free assay | 77 |
| ULK3 (Homo sapiens, UniProt Q6PHR2) | cell-free assay | 84 |
| Tyrosine-protein kinase ABL1, phosphorylated (ABL1, Homo sapiens, UniProt P00519, T315I) | cell-free assay | 97 |
| Ribosomal protein S6 kinase alpha-1, N-terminal kinase domain (RPS6KA1, Homo sapiens, UniProt Q15418) | cell-free assay | 100 |
| MAP4K4 (Homo sapiens, UniProt O95819) | cell-free assay | 100 |
| PRKD2 (Homo sapiens, UniProt Q9BZL6) | cell-free assay | 95 |

Excerpt of the above (series 3):
| cell line | conditions | spheroid area |
| --- | --- | --- |
| NCI-H1437 | 96 h | 2.44e+07 a.u. and 2.49e+07 a.u. and 2.57e+07 a.u. and 3.07e+07 a.u. and 2.99e+07 a.u. and 2.88e+07 a.u. |
| A375 | 402.52 h | 1.65e+08 a.u. and 1.72e+08 a.u. and 1.61e+08 a.u. and 1.77e+08 a.u. and 1.86e+08 a.u. and 1.55e+08 a.u. |
| KP-4 | 96 h | 1.88e+07 a.u. and 1.79e+07 a.u. and 1.71e+07 a.u. and 1.83e+07 a.u. and 1.49e+07 a.u. and 1.42e+07 a.u. |
| IPC-298 | 228 h | 3.48e+07 a.u. and 2.77e+07 a.u. and 2.62e+07 a.u. and 2.58e+07 a.u. and 3.96e+07 a.u. and 3.07e+07 a.u. |
